Published values gathered from unrelated publications.
Numbered parts are unrelated; each lists some results of a single study.
Sequence of UniProt Q12866 (whole entry, looked up): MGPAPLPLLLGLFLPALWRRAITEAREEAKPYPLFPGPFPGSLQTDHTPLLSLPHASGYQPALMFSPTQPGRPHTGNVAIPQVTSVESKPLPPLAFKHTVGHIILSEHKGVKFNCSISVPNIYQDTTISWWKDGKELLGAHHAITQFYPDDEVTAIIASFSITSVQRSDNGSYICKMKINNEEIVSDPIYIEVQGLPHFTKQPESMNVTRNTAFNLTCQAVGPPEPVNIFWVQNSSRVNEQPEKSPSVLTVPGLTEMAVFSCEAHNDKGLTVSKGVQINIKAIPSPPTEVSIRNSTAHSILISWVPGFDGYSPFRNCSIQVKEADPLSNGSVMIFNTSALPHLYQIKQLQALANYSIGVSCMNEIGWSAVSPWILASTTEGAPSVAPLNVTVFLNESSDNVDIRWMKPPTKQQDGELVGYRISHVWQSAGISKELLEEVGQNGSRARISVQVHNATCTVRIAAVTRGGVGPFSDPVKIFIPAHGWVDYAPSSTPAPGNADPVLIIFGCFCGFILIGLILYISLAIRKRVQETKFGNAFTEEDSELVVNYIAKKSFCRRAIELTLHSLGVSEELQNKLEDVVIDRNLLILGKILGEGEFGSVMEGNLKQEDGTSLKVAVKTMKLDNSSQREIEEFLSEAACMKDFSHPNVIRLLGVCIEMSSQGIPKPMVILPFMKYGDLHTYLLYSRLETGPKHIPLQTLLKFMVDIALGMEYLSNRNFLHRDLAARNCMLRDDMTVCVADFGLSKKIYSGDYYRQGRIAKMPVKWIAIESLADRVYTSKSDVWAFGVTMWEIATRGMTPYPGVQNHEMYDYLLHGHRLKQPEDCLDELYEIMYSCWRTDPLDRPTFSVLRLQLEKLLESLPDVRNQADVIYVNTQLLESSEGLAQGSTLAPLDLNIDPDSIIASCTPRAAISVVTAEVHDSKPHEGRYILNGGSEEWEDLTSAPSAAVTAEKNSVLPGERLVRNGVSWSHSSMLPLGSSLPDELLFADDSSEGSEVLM
Sequence of UniProt Q99558 (whole entry, looked up): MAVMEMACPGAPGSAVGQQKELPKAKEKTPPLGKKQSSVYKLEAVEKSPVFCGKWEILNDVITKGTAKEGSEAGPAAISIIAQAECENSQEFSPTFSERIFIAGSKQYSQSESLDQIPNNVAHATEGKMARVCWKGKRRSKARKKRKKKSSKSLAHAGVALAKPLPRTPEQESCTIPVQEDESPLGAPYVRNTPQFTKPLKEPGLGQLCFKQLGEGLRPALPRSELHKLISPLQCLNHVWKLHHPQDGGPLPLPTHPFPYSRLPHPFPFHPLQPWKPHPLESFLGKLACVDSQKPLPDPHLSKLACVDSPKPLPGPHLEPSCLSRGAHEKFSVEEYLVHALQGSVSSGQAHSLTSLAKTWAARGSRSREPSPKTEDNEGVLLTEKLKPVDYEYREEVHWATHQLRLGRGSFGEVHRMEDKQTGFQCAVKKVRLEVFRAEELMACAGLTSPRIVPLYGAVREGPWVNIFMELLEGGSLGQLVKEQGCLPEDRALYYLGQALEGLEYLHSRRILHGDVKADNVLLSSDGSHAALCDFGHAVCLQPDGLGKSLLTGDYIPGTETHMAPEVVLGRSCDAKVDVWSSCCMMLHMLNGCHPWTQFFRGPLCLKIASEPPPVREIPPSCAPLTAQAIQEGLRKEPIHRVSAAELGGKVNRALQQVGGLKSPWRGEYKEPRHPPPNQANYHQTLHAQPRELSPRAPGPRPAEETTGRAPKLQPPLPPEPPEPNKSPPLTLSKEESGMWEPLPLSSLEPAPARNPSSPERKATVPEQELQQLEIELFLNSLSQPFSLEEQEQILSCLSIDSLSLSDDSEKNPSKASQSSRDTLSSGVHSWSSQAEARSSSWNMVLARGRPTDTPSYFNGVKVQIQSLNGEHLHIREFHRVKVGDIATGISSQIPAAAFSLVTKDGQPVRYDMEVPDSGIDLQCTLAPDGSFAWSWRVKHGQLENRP
Sequence of UniProt Q04912 (whole entry, looked up): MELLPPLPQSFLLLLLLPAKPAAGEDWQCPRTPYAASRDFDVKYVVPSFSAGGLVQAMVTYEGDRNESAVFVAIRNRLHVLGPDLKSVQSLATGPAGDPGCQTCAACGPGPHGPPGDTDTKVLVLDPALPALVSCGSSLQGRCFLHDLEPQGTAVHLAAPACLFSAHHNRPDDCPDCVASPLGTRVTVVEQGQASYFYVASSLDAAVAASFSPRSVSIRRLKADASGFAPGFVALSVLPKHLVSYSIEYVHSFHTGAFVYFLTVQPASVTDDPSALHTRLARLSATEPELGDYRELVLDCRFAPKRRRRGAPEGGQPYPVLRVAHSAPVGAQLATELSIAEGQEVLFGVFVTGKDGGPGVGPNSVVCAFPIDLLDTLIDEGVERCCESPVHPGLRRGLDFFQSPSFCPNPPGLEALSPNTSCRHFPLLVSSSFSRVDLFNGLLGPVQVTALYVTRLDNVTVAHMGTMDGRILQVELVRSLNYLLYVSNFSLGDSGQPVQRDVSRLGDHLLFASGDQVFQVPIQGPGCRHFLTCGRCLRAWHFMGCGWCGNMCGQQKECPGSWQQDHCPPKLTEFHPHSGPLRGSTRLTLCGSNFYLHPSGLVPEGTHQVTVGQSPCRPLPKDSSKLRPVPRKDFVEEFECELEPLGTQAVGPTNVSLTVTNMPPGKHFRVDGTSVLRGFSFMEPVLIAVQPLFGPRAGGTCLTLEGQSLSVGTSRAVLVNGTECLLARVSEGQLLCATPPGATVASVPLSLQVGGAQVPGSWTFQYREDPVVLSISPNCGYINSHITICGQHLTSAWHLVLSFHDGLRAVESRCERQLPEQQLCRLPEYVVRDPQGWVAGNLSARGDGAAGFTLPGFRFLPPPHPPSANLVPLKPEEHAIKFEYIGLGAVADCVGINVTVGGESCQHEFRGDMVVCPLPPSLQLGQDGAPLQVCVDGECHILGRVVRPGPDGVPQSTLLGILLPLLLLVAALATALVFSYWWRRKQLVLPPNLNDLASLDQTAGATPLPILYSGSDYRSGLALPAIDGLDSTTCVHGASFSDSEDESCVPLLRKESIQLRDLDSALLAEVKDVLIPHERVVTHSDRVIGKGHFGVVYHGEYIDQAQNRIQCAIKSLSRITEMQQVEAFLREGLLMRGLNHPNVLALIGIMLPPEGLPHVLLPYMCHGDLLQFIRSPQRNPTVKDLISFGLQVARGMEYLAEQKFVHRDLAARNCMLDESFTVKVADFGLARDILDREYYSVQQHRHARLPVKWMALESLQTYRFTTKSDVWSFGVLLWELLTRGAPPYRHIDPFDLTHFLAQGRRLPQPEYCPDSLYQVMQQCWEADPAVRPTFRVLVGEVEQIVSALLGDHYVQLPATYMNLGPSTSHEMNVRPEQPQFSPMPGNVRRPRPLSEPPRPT
Sequence of UniProt Q9UL54 (whole entry, looked up): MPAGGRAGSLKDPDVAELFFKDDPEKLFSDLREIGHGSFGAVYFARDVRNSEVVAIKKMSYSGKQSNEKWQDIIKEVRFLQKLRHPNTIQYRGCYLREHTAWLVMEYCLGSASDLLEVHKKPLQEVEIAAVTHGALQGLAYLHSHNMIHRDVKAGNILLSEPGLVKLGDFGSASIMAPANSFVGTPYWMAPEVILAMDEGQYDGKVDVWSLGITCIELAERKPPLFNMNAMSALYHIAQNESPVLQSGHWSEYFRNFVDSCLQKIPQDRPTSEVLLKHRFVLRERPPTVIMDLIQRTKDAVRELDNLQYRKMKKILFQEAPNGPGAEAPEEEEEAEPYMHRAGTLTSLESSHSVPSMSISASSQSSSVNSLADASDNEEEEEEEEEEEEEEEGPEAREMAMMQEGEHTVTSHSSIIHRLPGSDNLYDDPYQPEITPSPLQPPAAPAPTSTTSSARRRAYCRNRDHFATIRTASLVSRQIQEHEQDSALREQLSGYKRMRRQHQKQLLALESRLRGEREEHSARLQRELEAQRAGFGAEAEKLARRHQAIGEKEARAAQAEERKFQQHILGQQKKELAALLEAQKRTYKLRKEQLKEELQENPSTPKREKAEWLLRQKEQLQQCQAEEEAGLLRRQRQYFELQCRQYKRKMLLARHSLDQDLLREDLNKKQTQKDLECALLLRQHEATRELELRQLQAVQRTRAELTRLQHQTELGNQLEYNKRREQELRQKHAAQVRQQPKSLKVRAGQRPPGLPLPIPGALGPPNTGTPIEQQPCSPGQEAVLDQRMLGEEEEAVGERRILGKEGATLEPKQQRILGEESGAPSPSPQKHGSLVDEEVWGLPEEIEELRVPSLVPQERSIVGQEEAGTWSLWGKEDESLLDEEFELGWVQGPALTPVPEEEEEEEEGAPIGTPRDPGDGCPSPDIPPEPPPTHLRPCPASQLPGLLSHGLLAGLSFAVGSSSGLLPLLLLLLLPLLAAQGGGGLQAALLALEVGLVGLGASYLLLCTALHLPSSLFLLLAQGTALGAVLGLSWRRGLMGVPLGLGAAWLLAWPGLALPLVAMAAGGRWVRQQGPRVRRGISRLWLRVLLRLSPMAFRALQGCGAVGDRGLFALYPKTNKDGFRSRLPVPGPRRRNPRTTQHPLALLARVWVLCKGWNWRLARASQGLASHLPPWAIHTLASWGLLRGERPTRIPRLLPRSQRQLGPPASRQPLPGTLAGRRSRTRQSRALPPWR
Sequence of UniProt Q9HC98 (whole entry, looked up): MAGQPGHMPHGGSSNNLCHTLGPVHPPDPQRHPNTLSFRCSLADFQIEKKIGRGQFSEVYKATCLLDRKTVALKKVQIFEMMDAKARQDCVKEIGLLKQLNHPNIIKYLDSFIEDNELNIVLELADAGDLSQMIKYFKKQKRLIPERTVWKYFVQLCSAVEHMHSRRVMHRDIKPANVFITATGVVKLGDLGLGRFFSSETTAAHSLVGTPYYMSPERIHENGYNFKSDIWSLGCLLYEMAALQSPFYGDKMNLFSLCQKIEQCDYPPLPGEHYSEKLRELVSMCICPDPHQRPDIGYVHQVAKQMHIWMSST

Sample 1
SMILES: O=C1NC(=O)/C(=C/c2ccc3nccnc3c2)S1
Read-out: enzyme activity
Mode: inhibitor
Concentration: 0.5 µM
Relative to: control
For MAP2K2 (Homo sapiens, UniProt P36507): remaining activity read 93.5%.
The remaining activity was 89.9% (TAOK2 (Homo sapiens, UniProt Q9UL54)).
It gave 97.3% for remaining activity (FGFR3 (Homo sapiens, UniProt P22607)).
For MST1R (Homo sapiens, UniProt Q04912): remaining activity read 97.8%.
MAP3K14 (Homo sapiens, UniProt Q99558) — remaining activity: 101%.
It gave 109% for remaining activity (NEK6 (Homo sapiens, UniProt Q9HC98)).
The remaining activity was 83.1% (WEE1 (Homo sapiens, UniProt P30291)).
MAP3K5 (Homo sapiens, UniProt Q99683) — remaining activity: 102%.
It gave 93.4% for remaining activity (GSK3B (Homo sapiens, UniProt P49841)).
The remaining activity was 87.8% (MAPK3 (Homo sapiens, UniProt P27361)).
The remaining activity was 99.8% (GRK7 (Homo sapiens, UniProt Q8WTQ7)).
It gave 92.2% for remaining activity (MERTK (Homo sapiens, UniProt Q12866)).
The remaining activity was 109% (ACVR1B (Homo sapiens, UniProt P36896)).
CSNK1G3 (Homo sapiens, UniProt Q9Y6M4) — remaining activity: 79.9%.
The remaining activity was 85.4% (RPS6KA2 (Homo sapiens, UniProt Q15349)).

Sample 2
Organism: Sarcocystis neurona
Read-out: parasite growth
Concentration: 10 µM
Time: 96 h
Setting: secondary screen
The inhibition of O=C(O)Cc1ccccc1Nc1c(Cl)cccc1Cl is reported as -5.5%.
For COc1c(N2CCNC(C)C2)c(F)cc2c(=O)c(C(=O)O)cn(C3CC3)c12 (stereo not shown), the inhibition was 11.6%.
CC(C)NCC(O)c1ccc(NS(C)(=O)=O)cc1 (stereo not shown) gave an inhibition of -5.2%.
C[C@H](CS)C(=O)N1CCC[C@H]1C(=O)O gave an inhibition of -14.7%.
CC(C)[C@H]1CC[C@H](C(=O)N[C@H](Cc2ccccc2)C(=O)O)CC1 has an inhibition of 6.2%.
COc1ccc(-c2oc3c(CC=C(C)C)c(O[C@@H]4O[C@H](CO)[C@@H](O)[C@H](O)[C@H]4O)cc(O)c3c(=O)c2O[C@@H]2O[C@@H](C)[C@H](O)[C@@H](O)[C@H]2O)cc1 gave an inhibition of -15.3%.
N[C@@H](C(=O)N[C@@H]1C(=O)N2C(C(=O)O)=C(CSc3c[nH]nn3)CS[C@H]12)c1ccc(O)cc1 has an inhibition of -25.4%.
The inhibition of Oc1ccc(/C=C/c2cc(O)cc(O)c2)cc1 is reported as -15.1%.

Sample 3
Cell line: HaCaT
Concentration: 100 µM
Time: 18 h
With CC(=O)[C@H]1CC[C@H]2[C@@H]3CCC4=CC(=O)CC[C@]4(C)[C@H]3CC[C@]12C the viability was 96.2%.
For O=c1cc(-c2ccc(O)c(O)c2)oc2cc(O)cc(O)c12, the viability was 69.5%.
For Cc1cccc(Nc2ccccc2C(=O)O)c1C, the viability was 95.1%.
CC(C)(CO)C(O)C(=O)NCCCO (stereo not shown) gave a viability of 96.9%.
CC(=O)O[C@]1(C(C)=O)CC[C@H]2[C@@H]3CCC4=CC(=O)CCC4=C3[C@@H](c3ccc(N(C)C)cc3)C[C@@]21C has a viability of 92.6%.
For Clc1ccc2nsnc2c1NC1=NCCN1, the viability was 110%.
The viability of C[C@]12CCC(=O)C=C1C=C[C@@H]1[C@@H]2CC[C@@]2(C)[C@H]1CC[C@@]21CCC(=O)O1 is reported as 97.8%.

Sample 4
Cell line: normal-adjacent organoid sample G
Technique: CellTiter-Glo
Concentration: 1 µM
Setting: replicate mean
Relative to: DMSO
With Cn1nc(C(=O)NCc2ccc(C(=O)O)cc2)cc1-c1ccc2[nH]ccc2c1 the viability was 106%.
With CN(C)C(=O)Cn1cc(-c2nc(C3(c4ccc(-c5cnc(N)nc5)cc4)CC3)no2)cn1 the viability was 104%.
Cn1nc(C(F)(F)F)cc1-c1cnc(N2CCc3cc(S(=O)(=O)Nc4c(F)cc(Cl)cc4F)cc(N4CCCC4=O)c32)nc1 gave a viability of 105%.
For C[C@@H]1CN(c2cc(-c3nn(C)c4ccc(OC5(C)CC5)cc34)ncn2)C[C@H](C)O1, the viability was 103%.
For O=C1CCc2cc(Nc3cc(OC4CCOCC4)c([N+](=O)[O-])cc3Cl)ccc2N1, the viability was 121%.
For Cc1cc(NC(=O)c2cccc(S(F)(F)(F)(F)F)c2)cc(-n2ccn3nc(-c4cccnc4)cc23)c1, the viability was 85.9%.
The viability of NS(=O)(=O)c1cc(NC(=O)Cc2ccccc2)ccc1Oc1cccc(Cl)c1 is reported as 106%.

Excerpt of the above (sample 1):
CSNK1G3 (Homo sapiens, UniProt Q9Y6M4) — remaining activity: 79.9%.
The remaining activity was 83.1% (WEE1 (Homo sapiens, UniProt P30291)).
It gave 93.4% for remaining activity (GSK3B (Homo sapiens, UniProt P49841)).
The remaining activity was 89.9% (TAOK2 (Homo sapiens, UniProt Q9UL54)).
For MAP2K2 (Homo sapiens, UniProt P36507): remaining activity read 93.5%.
MAP3K14 (Homo sapiens, UniProt Q99558) — remaining activity: 101%.
